Experimental data from different studies.
Each line is one published result; not all experiments were run side by side. Numbers after ± are the reported error.
CSNK1D: Casein kinase I isoform delta (CSNK1D, Homo sapiens, UniProt P48730)
UniProt P48730, sequence (whole entry, looked up): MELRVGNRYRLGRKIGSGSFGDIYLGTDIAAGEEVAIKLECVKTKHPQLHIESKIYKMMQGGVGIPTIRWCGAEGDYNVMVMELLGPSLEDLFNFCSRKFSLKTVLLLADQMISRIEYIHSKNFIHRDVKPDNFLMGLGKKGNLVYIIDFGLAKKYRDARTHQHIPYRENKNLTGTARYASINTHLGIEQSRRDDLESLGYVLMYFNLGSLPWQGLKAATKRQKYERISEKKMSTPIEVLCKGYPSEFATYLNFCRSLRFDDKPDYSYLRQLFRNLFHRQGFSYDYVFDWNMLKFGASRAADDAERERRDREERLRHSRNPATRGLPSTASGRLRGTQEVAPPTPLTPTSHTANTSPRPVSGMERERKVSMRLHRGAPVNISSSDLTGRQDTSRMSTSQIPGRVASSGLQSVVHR
PSMB5: Proteasome Macropain subunit MB1 (PSMB5, Homo sapiens, UniProt P28074)
UniProt P28074, sequence (whole entry, looked up): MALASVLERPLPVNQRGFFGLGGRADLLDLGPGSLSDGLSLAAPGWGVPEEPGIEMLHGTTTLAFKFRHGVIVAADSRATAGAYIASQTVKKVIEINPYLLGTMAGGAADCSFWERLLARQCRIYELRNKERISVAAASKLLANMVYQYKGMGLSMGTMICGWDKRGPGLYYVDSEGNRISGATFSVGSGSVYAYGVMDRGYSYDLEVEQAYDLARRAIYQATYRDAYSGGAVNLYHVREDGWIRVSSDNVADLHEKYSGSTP
UniProt P00383, sequence (whole entry, looked up): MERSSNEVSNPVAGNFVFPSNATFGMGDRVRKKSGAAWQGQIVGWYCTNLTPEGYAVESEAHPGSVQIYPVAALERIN
UniProt P00747, sequence (whole entry, looked up): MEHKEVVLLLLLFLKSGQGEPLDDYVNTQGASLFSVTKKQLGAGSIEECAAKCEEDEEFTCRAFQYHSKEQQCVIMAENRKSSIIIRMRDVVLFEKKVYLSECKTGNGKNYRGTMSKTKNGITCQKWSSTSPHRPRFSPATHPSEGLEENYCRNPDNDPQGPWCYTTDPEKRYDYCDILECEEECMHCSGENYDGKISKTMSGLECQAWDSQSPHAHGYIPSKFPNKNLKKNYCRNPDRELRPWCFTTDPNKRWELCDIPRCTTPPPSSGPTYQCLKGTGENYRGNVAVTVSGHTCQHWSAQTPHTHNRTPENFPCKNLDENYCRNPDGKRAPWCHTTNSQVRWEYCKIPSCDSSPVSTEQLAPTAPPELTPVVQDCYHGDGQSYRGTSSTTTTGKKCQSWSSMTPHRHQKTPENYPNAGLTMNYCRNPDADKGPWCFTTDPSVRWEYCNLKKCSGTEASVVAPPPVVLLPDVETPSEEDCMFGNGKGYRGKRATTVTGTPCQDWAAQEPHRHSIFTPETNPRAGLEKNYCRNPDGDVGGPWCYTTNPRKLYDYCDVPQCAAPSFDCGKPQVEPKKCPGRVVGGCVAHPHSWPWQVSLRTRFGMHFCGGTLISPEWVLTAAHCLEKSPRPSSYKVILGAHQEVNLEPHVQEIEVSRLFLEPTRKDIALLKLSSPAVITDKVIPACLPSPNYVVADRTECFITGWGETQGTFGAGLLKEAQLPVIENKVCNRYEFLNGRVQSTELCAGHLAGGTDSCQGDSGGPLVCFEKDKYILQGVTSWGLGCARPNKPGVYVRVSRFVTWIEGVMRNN
UniProt P05181, sequence (whole entry, looked up): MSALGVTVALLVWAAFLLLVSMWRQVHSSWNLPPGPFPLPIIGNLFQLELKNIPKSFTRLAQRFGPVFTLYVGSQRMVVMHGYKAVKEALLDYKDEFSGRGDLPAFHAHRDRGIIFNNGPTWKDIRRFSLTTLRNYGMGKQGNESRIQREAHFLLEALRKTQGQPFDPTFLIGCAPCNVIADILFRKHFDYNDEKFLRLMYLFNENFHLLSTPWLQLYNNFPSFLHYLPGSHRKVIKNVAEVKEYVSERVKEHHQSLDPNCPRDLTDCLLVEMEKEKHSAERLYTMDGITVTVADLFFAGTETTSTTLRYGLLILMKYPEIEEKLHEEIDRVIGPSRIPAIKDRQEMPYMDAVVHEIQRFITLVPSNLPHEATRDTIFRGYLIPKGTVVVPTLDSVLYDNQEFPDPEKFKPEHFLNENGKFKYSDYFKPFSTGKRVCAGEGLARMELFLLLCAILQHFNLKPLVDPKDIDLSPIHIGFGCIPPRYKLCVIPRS
UniProt P11388, sequence (whole entry, looked up): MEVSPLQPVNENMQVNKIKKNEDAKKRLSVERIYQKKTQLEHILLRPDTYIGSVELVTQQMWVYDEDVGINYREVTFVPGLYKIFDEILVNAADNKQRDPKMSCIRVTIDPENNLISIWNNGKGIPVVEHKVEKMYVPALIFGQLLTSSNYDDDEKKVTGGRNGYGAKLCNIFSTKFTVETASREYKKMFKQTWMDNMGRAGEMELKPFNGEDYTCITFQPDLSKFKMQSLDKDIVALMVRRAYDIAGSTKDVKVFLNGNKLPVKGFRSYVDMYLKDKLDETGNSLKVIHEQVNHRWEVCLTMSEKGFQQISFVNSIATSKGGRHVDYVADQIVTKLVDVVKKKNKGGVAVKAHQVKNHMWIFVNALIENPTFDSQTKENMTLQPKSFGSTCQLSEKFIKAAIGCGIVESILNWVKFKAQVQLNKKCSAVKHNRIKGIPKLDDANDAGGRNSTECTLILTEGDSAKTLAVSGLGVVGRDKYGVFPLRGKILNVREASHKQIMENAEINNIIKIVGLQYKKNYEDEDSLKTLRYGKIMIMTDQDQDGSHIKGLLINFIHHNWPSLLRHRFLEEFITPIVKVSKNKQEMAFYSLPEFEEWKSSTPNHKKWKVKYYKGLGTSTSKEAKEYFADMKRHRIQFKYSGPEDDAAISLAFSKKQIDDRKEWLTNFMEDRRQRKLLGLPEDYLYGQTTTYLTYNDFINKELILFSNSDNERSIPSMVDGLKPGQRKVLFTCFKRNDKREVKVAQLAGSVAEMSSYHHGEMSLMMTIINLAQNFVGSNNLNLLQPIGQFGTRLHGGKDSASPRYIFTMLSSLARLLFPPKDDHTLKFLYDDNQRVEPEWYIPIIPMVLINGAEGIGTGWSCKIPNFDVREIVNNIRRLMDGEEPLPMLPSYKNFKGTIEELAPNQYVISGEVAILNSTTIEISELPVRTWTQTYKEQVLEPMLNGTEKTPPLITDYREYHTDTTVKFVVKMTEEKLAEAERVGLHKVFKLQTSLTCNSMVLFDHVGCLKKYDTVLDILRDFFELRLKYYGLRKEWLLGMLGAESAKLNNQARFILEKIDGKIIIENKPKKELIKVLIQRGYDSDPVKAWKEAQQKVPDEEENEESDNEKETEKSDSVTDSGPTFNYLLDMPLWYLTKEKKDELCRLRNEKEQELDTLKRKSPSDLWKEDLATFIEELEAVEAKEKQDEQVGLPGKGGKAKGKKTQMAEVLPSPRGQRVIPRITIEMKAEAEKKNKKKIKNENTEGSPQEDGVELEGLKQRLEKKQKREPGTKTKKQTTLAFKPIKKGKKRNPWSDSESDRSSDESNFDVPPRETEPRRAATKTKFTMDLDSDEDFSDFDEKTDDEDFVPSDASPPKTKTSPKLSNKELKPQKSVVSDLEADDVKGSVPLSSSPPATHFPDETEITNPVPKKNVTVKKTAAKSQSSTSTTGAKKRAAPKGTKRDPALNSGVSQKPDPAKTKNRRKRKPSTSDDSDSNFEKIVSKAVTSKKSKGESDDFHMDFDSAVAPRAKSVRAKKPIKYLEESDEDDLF
UniProt P37231, sequence (whole entry, looked up): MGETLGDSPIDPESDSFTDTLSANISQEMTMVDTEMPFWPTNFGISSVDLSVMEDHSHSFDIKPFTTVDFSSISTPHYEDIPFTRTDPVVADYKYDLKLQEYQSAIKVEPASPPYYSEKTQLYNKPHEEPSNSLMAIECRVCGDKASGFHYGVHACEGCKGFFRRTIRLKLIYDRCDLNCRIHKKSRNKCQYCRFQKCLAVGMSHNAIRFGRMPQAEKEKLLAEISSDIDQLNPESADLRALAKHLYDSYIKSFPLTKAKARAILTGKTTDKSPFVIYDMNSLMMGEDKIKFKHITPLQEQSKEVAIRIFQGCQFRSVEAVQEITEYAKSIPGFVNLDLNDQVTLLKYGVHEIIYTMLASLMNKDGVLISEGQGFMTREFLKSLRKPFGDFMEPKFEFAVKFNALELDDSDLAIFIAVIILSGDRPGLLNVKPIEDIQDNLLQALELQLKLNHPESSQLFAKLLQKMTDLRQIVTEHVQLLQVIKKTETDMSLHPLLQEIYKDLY
UniProt O14638, sequence (whole entry, looked up): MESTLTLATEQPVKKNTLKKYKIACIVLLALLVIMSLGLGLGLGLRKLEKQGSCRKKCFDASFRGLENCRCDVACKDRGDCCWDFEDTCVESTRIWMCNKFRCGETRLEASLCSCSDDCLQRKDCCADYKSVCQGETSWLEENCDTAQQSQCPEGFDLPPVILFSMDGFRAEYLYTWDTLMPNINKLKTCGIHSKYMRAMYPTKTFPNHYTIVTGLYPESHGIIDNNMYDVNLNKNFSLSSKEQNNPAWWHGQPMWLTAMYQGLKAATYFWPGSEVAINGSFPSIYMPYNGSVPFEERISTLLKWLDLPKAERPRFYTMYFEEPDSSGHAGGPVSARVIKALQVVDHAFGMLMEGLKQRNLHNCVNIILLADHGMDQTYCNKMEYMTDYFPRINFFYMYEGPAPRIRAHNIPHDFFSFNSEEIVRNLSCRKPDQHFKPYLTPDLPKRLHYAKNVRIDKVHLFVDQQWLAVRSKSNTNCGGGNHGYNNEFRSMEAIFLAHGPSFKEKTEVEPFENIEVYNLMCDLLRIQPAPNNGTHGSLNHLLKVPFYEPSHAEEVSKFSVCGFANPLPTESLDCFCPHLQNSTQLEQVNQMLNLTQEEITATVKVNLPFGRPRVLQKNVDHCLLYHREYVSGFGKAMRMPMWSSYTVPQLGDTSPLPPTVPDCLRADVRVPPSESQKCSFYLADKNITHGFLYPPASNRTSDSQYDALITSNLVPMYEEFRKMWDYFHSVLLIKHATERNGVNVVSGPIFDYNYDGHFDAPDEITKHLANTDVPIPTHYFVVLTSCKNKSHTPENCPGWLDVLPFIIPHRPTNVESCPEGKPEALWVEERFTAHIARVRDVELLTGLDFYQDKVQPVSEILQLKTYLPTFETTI

| SMILES | target | assay | system | setting | IC50 |
| --- | --- | --- | --- | --- | --- |
| COCC(=O)N1CCC[C@H](C(=O)NCc2nc(-c3ccc(C#N)cc3)cs2)C1 | uncharacterized protein (Plasmodium falciparum, UniProt A0A5K1K7U1+Q8I261+Q8IJT1) | Suc-LLVY-AMC | – | – | 42 ± 10 nM |
| Cc1cccc(-c2nc(C#CCCO)[nH]c2-c2ccncc2)c1 | CSNK1D | inhibitor | – | – | 303 ± 19.7 nM |
| c1cc(N2CCCCC2)ccc1Nc1cc2ncc(OCC3CCNCC3)nc2cc1-c1ccc(N2CCCCC2)cc1 | Protein AF-9, with AF4 (Homo sapiens, UniProt P42568) | AlphaScreen | – | – | 950 ± 100 nM |
| O=c1nc(SCc2cc(F)cc(C(F)(F)F)c2)nc(SCc2ccc3nc(Cl)ccc3c2)[nH]1 | TOP2A (Homo sapiens, UniProt P11388) | ATPase activity, ATP-competitive inhibitor | – | with: ATP 0.5 mM | 25700 nM |
| COc1cc(/C=N/n2c(C)nc3ccc(Br)cc3c2=O)ccc1O | Phospholipase A2, membrane associated (Homo sapiens, UniProt P14555) | enzyme activity, inhibitor, colorimetric | – | – | 30300 ± 350 nM |
| O=C(Nc1ccc(OCCF)cc1)c1cc([N+](=O)[O-])ccc1Cl | Peroxisome proliferator-activated receptor gamma, ligand-binding domain (PPARG, Homo sapiens, UniProt P37231) | binding, scintillation proximity | His-tagged ligand-binding domain | with: [3H]rosiglitazone | 47.5 ± 7.6 nM |
| COCc1nn(Cc2ccc(Cn3ccccc3=O)cc2)cc1C(=O)NCc1nccc(OC)c1C | Plasminogen (PLG, Homo sapiens, UniProt P00747) | – | – | – | > 40000 nM |
| CCc1oc2ccccc2c1C(=O)c1cc(Br)c(O)c(Br)c1 | Cytochrome P450 2E1 (CYP2E1, Homo sapiens, UniProt P05181) | p-nitrophenol hydroxylation, inhibitor | baculosomes | 10 min, with additive 1 µM | 4300 nM |
| Cc1ncc(C(=O)N[C@@H](CCC2CCCCC2)C(=O)N[C@@H](CC(C)C)C(=O)N[C@H](/C=C/S(C)(=O)=O)Cc2ccc(CN)cc2)s1 | PSMB5 | competitive ABPP | Raji cell lysate | – | 460 nM |
| CC[C@@H]1[C@H](F)C(=O)N[C@@H]1COc1nccc2cc(C(N)=O)c(OC)cc12 | PKN1 (Homo sapiens, UniProt Q16512) | ATP probe binding, KiNativ profiling, item: Lys1 probe site | THP-1 cell lysate | – | > 5000 nM |
| CC(C)C[C@H](NC(=O)[C@H](CCc1ccccc1)NC(=O)CN1CCOCC1)C(=O)N[C@@H](Cc1ccccc1)C(=O)N[C@@H](CC(C)C)C(=O)[C@@]1(C)CO1 | Proteasome subunit beta type-9 (Mus musculus, UniProt P28076) | proteasome subunit activity | Ba/F3 BCR-ABL1 T315I | 1 h pulse | 243 ± 53.1 nM |
| COc1cccc2c(N3CCC(CCP(=O)(O)O)CC3)ncnc12 | Ectonucleotide pyrophosphatase/phosphodiesterase family member 3 (Homo sapiens, UniProt O14638) | cGAMP hydrolysis, inhibitor | – | overnight, with: cGAMP 2 µM | 800 nM |
| CCOC(=O)C1CCCN1C(=O)c1ccc(NCc2cnc3nc(N)nc(N)c3n2)cc1 (stereo not drawn) | Pteridine reductase 1 (Leishmania major, UniProt Q01782) | – | – | estimated | > 100000 nM |
| COc1ccc(C[C@H](NC(=O)[C@H](C)NC(=O)CN2CCOCC2)C(=O)N[C@@H](CC2CC3CCC2C3)C(=O)[C@@]2(C)CO2)cc1 (mixture of isomers) | PSMB5 | competitive ABPP | Raji cell lysate | – | > 10000 nM |
| CC1CC(C)CN(c2ccc(C=NNc3nc(-c4ccc(C#N)cc4)cs3)cc2)C1 (stereo not drawn) | alpha-glucosidase | enzyme activity, inhibitor | – | with: p-nitrophenyl-alpha-D-glucopyranoside | > 100000 nM |
| C[C@H](NC(=O)[C@H](CC(=O)NCC(C)(C)C)NC(=O)C(=O)c1c[nH]c2ccccc12)C(=O)NCc1ccc(F)cc1F | PSMB5 | chymotrypsin-like activity, inhibitor, luminescence | – | with: Suc-LLVY-Glo substrate | 729 nM |
| O=[N+]([O-])c1cccc(Cl)c1-c1nc(-c2ccc(F)cc2)c(-c2ccncc2)[nH]1 | CSNK1D | inhibitor | – | – | 62.9 ± 7.1 nM |
| COc1ccc(-c2nc3ccc(C(=O)O)cc3[nH]2)cc1Br | Dihydrofolate reductase type 2 (Escherichia coli, UniProt P00383) | enzyme activity | – | pH 7 | > 630000 nM |

Excerpt of the above:
| SMILES | target | assay | system | setting | IC50 |
| --- | --- | --- | --- | --- | --- |
| O=C(Nc1ccc(OCCF)cc1)c1cc([N+](=O)[O-])ccc1Cl | Peroxisome proliferator-activated receptor gamma, ligand-binding domain (PPARG, Homo sapiens, UniProt P37231) | binding, scintillation proximity | His-tagged ligand-binding domain | with: [3H]rosiglitazone | 47.5 ± 7.6 nM |
| Cc1ncc(C(=O)N[C@@H](CCC2CCCCC2)C(=O)N[C@@H](CC(C)C)C(=O)N[C@H](/C=C/S(C)(=O)=O)Cc2ccc(CN)cc2)s1 | PSMB5 | competitive ABPP | Raji cell lysate | – | 460 nM |
